Published values collected from several papers.
± marks the error that the study gave.

The tissue uptake of `CSCC[C@H](NC(=O)CNC(=O)[C@H](CCCCN)NC(=O)[C@H](CC(C)C)NC(=O)[C@@H]1CCCN1C(=O)[C@H](CO)NC(=O)[C@H](Cc1c[nH]cn1)NC(=O)[C@H](Cc1c[nH]c2ccccc12)NC(=O)[C@H](CCCNC(=N)N)NC(=O)[C@H](CC(C)C)NC(=O)[C@H](CCCNC(=N)N)NC(=O)[C@H](Cc1c[nH]c2ccccc12)NC(=O)[C@H](CS)NC(=O)CCCCCNC(=O)CN1CCN(CC(=O)O)CCN(CC(=O)O)CCN(CC(=O)O)CC1)C(=O)O` [copper-64 labelled] is reported as 0.45 %ID/g (ex vivo biodistribution; BALB/c nude mice, muscle; intravenous, dose not given, 6 h, Huh-7 tumour-bearing).
The tissue uptake of `CC(C)C[C@@H](NC(=O)[C@@H](CCCNC(=N)N)NC(=O)[C@@H](Cc1c[nH]cn1)NC(=O)[C@@H](Cc1c[nH]c2ccccc12)NC(=O)[C@@H](Cc1c[nH]cn1)NC(=O)[C@@H](Cc1ccccc1)NC(=O)[C@H](NC(=O)[C@@H](Cc1ccc(O)cc1)NC(=O)CNC(=O)CNC(=O)CCOCCOCCOCCNC(=O)CN1CCN(CC(=O)O)CCN(CC(=O)O)CC1)[C@H](C)O)C(=O)N[C@H](CC(N)=O)C(=O)N1CCC[C@@H]1C(=O)O` [gallium-68 labelled] is reported as 4.56 ± 1.18 %ID/g (C57BL/6 mice, male, tumor; intravenous, 1.85 MBq, 60 min, together with: blocking antibody).
With `C[C@H](O)[C@@H](NC(=O)[C@H]1CCCN1C(=O)[C@@H](CCCCN)NC(=O)[C@@H](CO)NC(=O)[C@@H](Cc1ccc(O)cc1)NC(=O)[C@@H](CC(N)=O)NC(=O)CCOCCOCCOCCNC(=O)CN1CCN(CC(=O)O)CCN(CC(=O)O)CCN(CC(=O)O)CC1)C(=O)N[C@H](CC(=O)O)C(=O)N[C@H](CCCNC(=N)N)C(=O)N[C@H](CCC(N)=O)C(=O)N[C@H](Cc1ccc(O)cc1)C(=O)N[C@H](Cc1c[nH]cn1)C(=O)N[C@H](Cc1ccccc1)C(N)=O` [gallium-68 labelled] the tissue uptake was 1.19 ± 0.39 %ID/g (BALB/c nude mice U-87 MG tumour, heart; intravenous, 1.85 MBq, 0.08333 h, radiolabelled).
`Cc1ccccc1-c1ccc(-c2nc(-c3ccc(CN(C)CCCC(=O)O)c([18F])c3)no2)cc1C(F)(F)F` gave a tissue uptake of 0.32 ± 0.16 %ID/g (Sprague Dawley rats, male, pancreas; 120 min).
`CC[C@H](C)[C@H](NC(=O)[C@H](CCCCN)NC(=O)CNC(=O)[C@H](CC(C)C)NC(=O)[C@H](Cc1ccccc1)NC(=O)[C@H](CCCCN)NC(=O)[C@H](CO)NC(=O)[C@H](Cc1ccccc1)NC(=O)[C@H](Cc1c[nH]c2ccccc12)NC(=O)[C@H](CCC(N)=O)NC(=O)[C@@H](NC(=O)[C@H](Cc1ccccc1)NC(=O)CCCCCNC(=O)CN1CCN(CC(=O)O)CCN(CC(=O)O)CCN(CC(=O)O)CC1)C(C)C)C(=O)N[C@@H](CCC(=O)O)C(=O)N1CCC[C@H]1C(=O)N[C@@H](CC(=O)O)C(=O)N[C@H](C(=O)N[C@@H](CO)C(=O)N[C@@H](CCC(N)=O)C(=O)N[C@H](C(=O)N[C@@H](CCC(N)=O)C(=O)N[C@@H](CC(=O)O)C(=O)N1CCC[C@H]1C(=O)N[C@@H](CC(N)=O)C(=O)N[C@@H](CC(=O)O)C(=O)N[C@@H](CCC(N)=O)C(=O)N[C@@H](Cc1ccc(O)cc1)C(=O)N[C@@H](CCC(=O)O)C(=O)N1CCC[C@H]1C(=O)N[C@@H](Cc1ccccc1)C(=O)O)C(C)C)C(C)C` [copper-64 labelled] has a tissue uptake of 0.97 ± 0.5 %ID/g (C57BL/6 mice, male, naive, white fat; 0.5 h).
`CC[C@H](C)[C@H](NC(=O)[C@H](CCCNC(=N)N)NC(=O)[C@H](CCCCN)NC(=O)[C@H](Cc1ccc(O)cc1)NC(=O)[C@H](CC(=O)O)NC(=O)[C@H](C)NC(=O)CNC(=O)CCOCCOCCOCCNC(=O)CN1CCN(CC(=O)O)CCN(CC(=O)O)CCN(CC(=O)O)CC1)C(=O)N[C@H](C(=O)N[C@@H](CC(C)C)C(=O)N[C@@H](CCCCN)C(=O)N[C@H](C(=O)N[C@@H](CC(N)=O)C(N)=O)C(C)C)[C@@H](C)O` [copper-64 labelled] gave a tissue uptake of 0.533 ± 0.211 %ID/g (ex vivo gamma counting; C57BL/6J male mice, B16-F10 tumour, testis; intravenous, 1.85 MBq, 100 min).
With `CN1Cc2cc(Cl)ccc2-n2c(nnc2C2CCN(c3cccc([18F])n3)CC2)C1` the tissue uptake was 10.7 ± 6.78 %ID/g (C57BL/6 mouse male, adrenal gland; intravenous, 3.7 MBq, 1 min).
`O=C([O-])CNC(=O)CN1CCN(CC(=O)NCC(=O)[O-])CCN(CC(=O)NCC(=O)[O-])CCN(CC(=O)NCC(=O)[O-])CC1.[177Lu+3]` gave a tissue uptake of 0.233 ± 0.183 % injected dose/g (Sprague-Dawley rat, spleen; intravenous (tail vein), dose not given, 2 h).
`CCCC[C@H]1C(=O)N(C)[C@@H](CCCC)C(=O)N[C@@H](CCCNC(=O)CN2CCN(CC(=O)O)CCN(CC(=O)O)CCN(CC(=O)O)CC2)C(=O)N[C@H](C(=O)NCC(N)=O)CSCC(=O)N[C@@H](Cc2ccc(O)cc2)C(=O)N(C)[C@@H](C)C(=O)N[C@@H](CC(N)=O)C(=O)N2CCC[C@H]2C(=O)N[C@@H](Cc2c[nH]cn2)C(=O)N[C@@H](CC(C)C)C(=O)N(C)CC(=O)N[C@@H](Cc2c[nH]c3ccccc23)C(=O)N[C@@H](CO)C(=O)N[C@@H](Cc2c[nH]c3ccccc23)C(=O)N1C` [gallium-68 labelled] gave a tissue uptake of 1.21 ± 0.21 %ID/g (NOD/SCID mice with CHO-hPD-L1 xenograft, muscle; 10 min post injection).
`O=C1NC2(CC2)COc2ncc(F)cc2[C@H]2COCCN2c2ccn3ncc1c3n2` — result for “mean corpuscular haemoglobin concentration”: 309 ± 14 g/L (Sprague-Dawley rat, male, blood; oral, 20 mg/kg/day, 4 weeks, end of recovery, subacute toxicity).

Excerpt of the above:
With `CN1Cc2cc(Cl)ccc2-n2c(nnc2C2CCN(c3cccc([18F])n3)CC2)C1` the tissue uptake was 10.7 ± 6.78 %ID/g (C57BL/6 mouse male, adrenal gland; intravenous, 3.7 MBq, 1 min).
